# Published values from different studies.
# Parts stem from different laboratories: compare values within a part only. Several values in a cell are separate wells, animals, samples, runs or records.
# Chain of UniProt P14616 (whole entry, looked up): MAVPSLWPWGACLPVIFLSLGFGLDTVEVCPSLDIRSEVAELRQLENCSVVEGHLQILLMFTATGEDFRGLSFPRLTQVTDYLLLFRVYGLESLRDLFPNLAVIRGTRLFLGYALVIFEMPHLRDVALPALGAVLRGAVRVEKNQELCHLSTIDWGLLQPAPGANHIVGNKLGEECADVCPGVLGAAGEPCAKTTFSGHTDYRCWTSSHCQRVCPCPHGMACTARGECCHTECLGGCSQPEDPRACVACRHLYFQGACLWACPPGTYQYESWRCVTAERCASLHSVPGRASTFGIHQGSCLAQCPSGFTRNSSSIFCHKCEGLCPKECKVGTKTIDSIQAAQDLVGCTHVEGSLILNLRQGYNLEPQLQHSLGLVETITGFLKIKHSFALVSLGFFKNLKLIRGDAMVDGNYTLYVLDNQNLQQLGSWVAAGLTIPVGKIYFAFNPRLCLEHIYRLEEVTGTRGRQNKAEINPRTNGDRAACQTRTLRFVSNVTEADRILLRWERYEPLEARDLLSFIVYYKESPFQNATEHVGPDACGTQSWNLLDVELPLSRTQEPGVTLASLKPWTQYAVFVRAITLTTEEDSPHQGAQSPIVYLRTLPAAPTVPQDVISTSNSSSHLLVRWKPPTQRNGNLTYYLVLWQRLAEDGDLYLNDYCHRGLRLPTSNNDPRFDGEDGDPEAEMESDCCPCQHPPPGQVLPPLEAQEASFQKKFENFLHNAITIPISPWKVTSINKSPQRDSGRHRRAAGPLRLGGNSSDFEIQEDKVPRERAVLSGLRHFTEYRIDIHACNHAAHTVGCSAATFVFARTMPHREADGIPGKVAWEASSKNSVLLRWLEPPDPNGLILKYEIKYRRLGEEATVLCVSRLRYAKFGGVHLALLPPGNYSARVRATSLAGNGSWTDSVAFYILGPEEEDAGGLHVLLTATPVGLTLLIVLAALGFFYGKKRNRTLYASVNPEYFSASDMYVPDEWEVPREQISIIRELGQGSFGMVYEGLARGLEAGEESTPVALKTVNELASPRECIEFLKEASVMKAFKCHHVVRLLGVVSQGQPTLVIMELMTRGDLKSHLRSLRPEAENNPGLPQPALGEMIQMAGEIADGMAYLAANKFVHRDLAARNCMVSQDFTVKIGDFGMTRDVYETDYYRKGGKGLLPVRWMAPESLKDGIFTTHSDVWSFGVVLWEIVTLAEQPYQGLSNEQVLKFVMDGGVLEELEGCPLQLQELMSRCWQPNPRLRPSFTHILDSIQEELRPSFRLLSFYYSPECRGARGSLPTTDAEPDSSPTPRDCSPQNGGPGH
# Chain of UniProt Q12851 (whole entry, looked up): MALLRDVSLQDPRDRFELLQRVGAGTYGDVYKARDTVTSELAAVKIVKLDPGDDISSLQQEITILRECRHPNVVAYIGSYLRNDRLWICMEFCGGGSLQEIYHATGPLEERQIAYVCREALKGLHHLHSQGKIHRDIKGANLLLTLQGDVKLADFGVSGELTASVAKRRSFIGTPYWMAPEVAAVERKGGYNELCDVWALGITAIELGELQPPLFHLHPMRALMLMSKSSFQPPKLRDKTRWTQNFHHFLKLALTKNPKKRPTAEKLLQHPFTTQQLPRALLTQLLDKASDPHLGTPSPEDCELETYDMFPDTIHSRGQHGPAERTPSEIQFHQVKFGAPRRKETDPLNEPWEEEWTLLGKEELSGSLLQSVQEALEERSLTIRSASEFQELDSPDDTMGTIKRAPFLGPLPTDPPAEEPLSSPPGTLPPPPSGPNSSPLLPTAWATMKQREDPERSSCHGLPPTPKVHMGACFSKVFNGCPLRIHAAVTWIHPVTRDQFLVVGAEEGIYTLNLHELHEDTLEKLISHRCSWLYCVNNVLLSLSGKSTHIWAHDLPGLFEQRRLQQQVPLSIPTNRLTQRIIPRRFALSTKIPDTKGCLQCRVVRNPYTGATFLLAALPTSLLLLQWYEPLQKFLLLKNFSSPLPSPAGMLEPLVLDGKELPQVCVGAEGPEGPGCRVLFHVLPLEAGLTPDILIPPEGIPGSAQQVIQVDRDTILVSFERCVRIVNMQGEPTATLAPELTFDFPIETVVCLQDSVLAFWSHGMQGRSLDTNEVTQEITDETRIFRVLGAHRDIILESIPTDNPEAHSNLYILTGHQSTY
# Chain of UniProt O94921 (whole entry, looked up): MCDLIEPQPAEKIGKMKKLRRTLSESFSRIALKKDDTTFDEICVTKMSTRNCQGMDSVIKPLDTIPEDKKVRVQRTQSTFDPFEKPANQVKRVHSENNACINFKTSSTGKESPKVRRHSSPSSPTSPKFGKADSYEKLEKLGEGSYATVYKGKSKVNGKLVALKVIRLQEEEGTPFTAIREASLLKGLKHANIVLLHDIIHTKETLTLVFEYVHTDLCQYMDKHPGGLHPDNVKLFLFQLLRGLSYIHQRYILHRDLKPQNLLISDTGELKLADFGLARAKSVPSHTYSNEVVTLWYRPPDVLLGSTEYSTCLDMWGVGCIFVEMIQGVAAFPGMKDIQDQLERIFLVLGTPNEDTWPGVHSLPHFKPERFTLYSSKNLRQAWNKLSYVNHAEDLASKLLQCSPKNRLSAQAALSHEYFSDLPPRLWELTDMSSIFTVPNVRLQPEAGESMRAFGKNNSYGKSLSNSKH
# Chain of UniProt Q96J92 (whole entry, looked up): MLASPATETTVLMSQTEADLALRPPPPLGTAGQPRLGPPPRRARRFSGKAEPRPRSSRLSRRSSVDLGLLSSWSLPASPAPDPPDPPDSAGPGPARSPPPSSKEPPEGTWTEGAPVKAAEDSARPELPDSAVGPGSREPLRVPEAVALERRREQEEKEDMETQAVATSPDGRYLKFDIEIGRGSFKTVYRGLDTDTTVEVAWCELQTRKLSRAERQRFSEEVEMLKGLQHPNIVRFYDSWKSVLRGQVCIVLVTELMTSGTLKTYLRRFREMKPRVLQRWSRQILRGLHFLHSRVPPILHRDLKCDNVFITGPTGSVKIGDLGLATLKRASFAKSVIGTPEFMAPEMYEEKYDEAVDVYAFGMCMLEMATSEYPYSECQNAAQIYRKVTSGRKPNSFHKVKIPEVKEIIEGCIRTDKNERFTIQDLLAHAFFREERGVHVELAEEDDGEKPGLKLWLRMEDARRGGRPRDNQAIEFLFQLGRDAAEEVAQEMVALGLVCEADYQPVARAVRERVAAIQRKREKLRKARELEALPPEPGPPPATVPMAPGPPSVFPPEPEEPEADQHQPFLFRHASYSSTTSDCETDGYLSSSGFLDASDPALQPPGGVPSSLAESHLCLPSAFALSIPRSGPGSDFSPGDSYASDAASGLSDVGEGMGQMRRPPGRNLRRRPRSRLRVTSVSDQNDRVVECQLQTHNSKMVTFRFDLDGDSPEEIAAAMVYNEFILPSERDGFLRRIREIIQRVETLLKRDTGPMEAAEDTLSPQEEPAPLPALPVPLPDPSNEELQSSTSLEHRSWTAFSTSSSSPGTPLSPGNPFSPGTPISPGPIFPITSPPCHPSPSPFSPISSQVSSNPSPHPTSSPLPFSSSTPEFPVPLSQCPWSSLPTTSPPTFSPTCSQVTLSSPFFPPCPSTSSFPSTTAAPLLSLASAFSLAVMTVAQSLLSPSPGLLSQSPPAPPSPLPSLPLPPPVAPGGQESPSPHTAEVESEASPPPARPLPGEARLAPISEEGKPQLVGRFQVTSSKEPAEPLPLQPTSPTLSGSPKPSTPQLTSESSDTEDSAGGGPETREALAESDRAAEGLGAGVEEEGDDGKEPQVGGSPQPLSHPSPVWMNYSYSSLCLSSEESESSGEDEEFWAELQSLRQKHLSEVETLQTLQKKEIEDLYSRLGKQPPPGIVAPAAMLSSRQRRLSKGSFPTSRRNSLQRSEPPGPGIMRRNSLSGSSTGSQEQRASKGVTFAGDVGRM
# Chain of UniProt Q6XUX3 (whole entry, looked up): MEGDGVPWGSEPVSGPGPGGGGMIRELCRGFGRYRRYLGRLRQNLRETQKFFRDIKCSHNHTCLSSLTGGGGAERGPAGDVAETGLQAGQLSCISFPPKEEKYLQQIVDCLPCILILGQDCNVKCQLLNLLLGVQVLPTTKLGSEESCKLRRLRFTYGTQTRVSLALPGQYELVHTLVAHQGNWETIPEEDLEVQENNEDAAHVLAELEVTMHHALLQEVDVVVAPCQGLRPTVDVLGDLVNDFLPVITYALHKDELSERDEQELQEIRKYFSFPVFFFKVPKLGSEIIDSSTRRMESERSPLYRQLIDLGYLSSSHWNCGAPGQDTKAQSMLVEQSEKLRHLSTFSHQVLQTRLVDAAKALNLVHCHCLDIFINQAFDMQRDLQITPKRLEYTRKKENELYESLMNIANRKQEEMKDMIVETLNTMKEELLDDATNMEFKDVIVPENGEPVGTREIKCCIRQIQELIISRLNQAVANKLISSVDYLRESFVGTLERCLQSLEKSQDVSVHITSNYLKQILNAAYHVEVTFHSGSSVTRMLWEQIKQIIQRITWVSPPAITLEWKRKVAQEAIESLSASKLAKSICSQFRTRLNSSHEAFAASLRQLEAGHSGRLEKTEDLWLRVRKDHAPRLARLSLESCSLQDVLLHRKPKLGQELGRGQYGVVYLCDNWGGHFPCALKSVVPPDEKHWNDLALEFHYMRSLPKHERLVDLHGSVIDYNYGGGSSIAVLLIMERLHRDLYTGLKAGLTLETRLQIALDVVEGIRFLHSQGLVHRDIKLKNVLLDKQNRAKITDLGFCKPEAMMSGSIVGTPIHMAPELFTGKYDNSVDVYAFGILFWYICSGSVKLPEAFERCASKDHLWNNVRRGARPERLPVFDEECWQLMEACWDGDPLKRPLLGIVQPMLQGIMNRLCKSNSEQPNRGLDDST
# Chain of UniProt Q9HC98 (whole entry, looked up): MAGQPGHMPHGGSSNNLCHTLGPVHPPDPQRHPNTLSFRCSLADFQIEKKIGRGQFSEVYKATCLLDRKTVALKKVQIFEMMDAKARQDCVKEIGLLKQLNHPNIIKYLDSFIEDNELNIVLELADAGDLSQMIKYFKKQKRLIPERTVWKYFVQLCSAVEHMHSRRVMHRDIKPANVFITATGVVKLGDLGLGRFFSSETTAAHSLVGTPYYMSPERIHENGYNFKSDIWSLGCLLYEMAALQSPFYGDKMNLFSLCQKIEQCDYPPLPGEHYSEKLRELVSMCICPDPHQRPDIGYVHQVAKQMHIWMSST

# Sample 1
# SMILES: O=C1NC(=O)/C(=C/c2ccc3nccnc3c2)S1
# Observed: enzyme activity
# Mode: inhibitor
# Tested at: 0.5 µM
# Baseline: control
target,remaining activity [%]
"Serine/threonine-protein kinase Nek4 (NEK4, Homo sapiens, UniProt P51957)",93.1
"Mitogen-activated protein kinase kinase kinase 10 (MAP3K10, Homo sapiens, UniProt Q02779)",94.2
"Serine/threonine-protein kinase WNK2 (WNK2, Homo sapiens, UniProt Q9Y3S1)",115
"Mast/stem cell growth factor receptor Kit (KIT, Homo sapiens, UniProt P10721)",87.5
"Mitogen-activated protein kinase kinase kinase kinase 2 (MAP4K2, Homo sapiens, UniProt Q12851)",86.1
"Protein kinase C delta type (PRKCD, Homo sapiens, UniProt Q05655)",94.4
"Leucine-rich repeat serine/threonine-protein kinase 2 (LRRK2, Homo sapiens, UniProt Q5S007)",96
"Interleukin-1 receptor-associated kinase 4 (IRAK4, Homo sapiens, UniProt Q9NWZ3)",99.9
"RAC-gamma serine/threonine-protein kinase (AKT3, Homo sapiens, UniProt Q9Y243)",104
"Cyclin-dependent kinase 9, with cyclin T1 (CDK9, Homo sapiens, UniProt P50750)",87.7
"Serine/threonine-protein kinase PLK2 (PLK2, Homo sapiens, UniProt Q9NYY3)",95.7
"Mitogen-activated protein kinase 12 (MAPK12, Homo sapiens, UniProt P53778)",96.6
"Ephrin type-A receptor 5 (EPHA5, Homo sapiens, UniProt P54756)",99.5
"Serine/threonine-protein kinase Chk1 (CHEK1, Homo sapiens, UniProt O14757)",99.4

# Sample 2
# Host: mouse
# Matrix: microsomes or S9
# Tested at: 2 µM
# Time: 0.5 h
SMILES,remaining compound [%]
COc1cc(=O)n(C)cc1C(=O)NCCCNC(=O)OC(C)(C)C,> 99
Cc1cccc(-c2c(-n3cncn3)nc3ccccc3c2O)c1,89.1
C/C(=C\COc1ccc2ccc(=O)oc2c1)CC/C=C(\C)CCC(=O)C(C)(C)O,11
CCCN(CC1CCCO1)C(=O)c1sc2ncn(C)c(=O)c2c1C (stereo not drawn),24.7
COc1ccccc1CNc1ccc2[nH]c(=O)[nH]c2c1,95.3

# Sample 3
# SMILES: Cc1c(NC(=O)c2cc(C(N)=O)nc3cc(F)ccc23)c(C(F)(F)F)nn1Cc1ccc(C(C)(C)C)cc1
# Tested at: 1 µM
target,observed,method,remaining binding [%]
"Homeodomain-interacting protein kinase 3 (HIPK3, Homo sapiens, UniProt Q9H422)",cell-free assay,competition with immobilised ligand,100
"Serine/threonine-protein kinase 38-like (STK38L, Homo sapiens, UniProt Q9Y2H1)",cell-free assay,competition with immobilised ligand,89
"Insulin receptor-related protein (INSRR, Homo sapiens, UniProt P14616)",cell-free assay,competition with immobilised ligand,96
"Serine/threonine-protein kinase SIK1 (SIK1, Homo sapiens, UniProt P57059)",,competition binding,87
"Serine/threonine-protein kinase Nek6 (NEK6, Homo sapiens, UniProt Q9HC98)",cell-free assay,competition with immobilised ligand,86
"Receptor-interacting serine/threonine-protein kinase 4 (RIPK4, Homo sapiens, UniProt P57078)",cell-free assay,competition with immobilised ligand,100
"Cyclin-dependent kinase 4, with cyclin D3 (CDK4, Homo sapiens, UniProt P11802)",cell-free assay,competition with immobilised ligand,100
"Serine/threonine-protein kinase WNK4 (WNK4, Homo sapiens, UniProt Q96J92)",cell-free assay,competition with immobilised ligand,100
"Cyclin-dependent kinase 14 (CDK14, Homo sapiens, UniProt O94921)",cell-free assay,competition with immobilised ligand,94
"Bone morphogenetic protein receptor type-1A (BMPR1A, Homo sapiens, UniProt P36894)",cell-free assay,competition with immobilised ligand,100
"Ephrin type-A receptor 1 (EPHA1, Homo sapiens, UniProt P21709)",cell-free assay,competition with immobilised ligand,96
"Dual serine/threonine and tyrosine protein kinase (DSTYK, Homo sapiens, UniProt Q6XUX3)",cell-free assay,competition with immobilised ligand,89
"Interleukin-1 receptor-associated kinase 3 (IRAK3, Homo sapiens, UniProt Q9Y616)",cell-free assay,competition with immobilised ligand,100
"Tyrosine-protein kinase Lyn (LYN, Homo sapiens, UniProt P07948)",cell-free assay,competition with immobilised ligand,99
"Tyrosine-protein kinase ABL1, phosphorylated (ABL1, Homo sapiens, UniProt P00519)",cell-free assay,competition with immobilised ligand,100
"Inhibitor of nuclear factor kappa-B kinase subunit epsilon (IKBKE, Homo sapiens, UniProt Q14164)",cell-free assay,competition with immobilised ligand,100
"Receptor tyrosine-protein kinase erbB-4 (ERBB4, Homo sapiens, UniProt Q15303)",cell-free assay,competition with immobilised ligand,98

# Sample 4
# SMILES: c1ccc(Oc2ccc(Nc3c4c(nc5ccccc35)CCC4)cc2)cc1
# Organism: Leishmania donovani
# Method: cidal or static mode
# Strain: DD8
# Matrix: promastigotes
# Tested at: concentration not given
time,promastigote count
72 h,9.76e+06 and 9.58e+06
24 h,1.24e+06
48 h,4.33e+06 and 4.37e+06

# Repeated from above (sample 1):
target,remaining activity [%]
"Mitogen-activated protein kinase kinase kinase 10 (MAP3K10, Homo sapiens, UniProt Q02779)",94.2
"Serine/threonine-protein kinase WNK2 (WNK2, Homo sapiens, UniProt Q9Y3S1)",115
"Mast/stem cell growth factor receptor Kit (KIT, Homo sapiens, UniProt P10721)",87.5
